Measured values gathered from unrelated publications.
Each numbered part is a random draw from the data of one study; scales do not carry over between parts.

Block 1 — technique: protein binding microarray; molecule type: double-stranded DNA, one strand shown; matrix: in vitro; concentration: not given; baseline: not given; direction: higher = stronger binding
Target: Histone acetyltransferase KAT6A, winged helix 1, GST fusion (KAT6A, Homo sapiens, UniProt Q92794, residues 1-85)
Notes: 8-mer, flanks averaged, mean of 2 arrays, mostly near background
Residues (chain): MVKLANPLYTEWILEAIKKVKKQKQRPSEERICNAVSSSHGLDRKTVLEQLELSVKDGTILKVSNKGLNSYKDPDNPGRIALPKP
`CTACCAAG` gave an E-score of -0.201.
The E-score of `CCAGGTTA` is reported as -0.0854.
The E-score of `ACCATATG` is reported as -0.208.
`CTGGAACC` has an E-score of -0.0537.
With `GTCTTGGA` the E-score was -0.159.
For `CCAACGTC`, the E-score was -0.191.
With `GGGTAGTA` the E-score was 0.00908.
`AGACTAAG` has an E-score of -0.154.
The E-score of `TCCTTGCA` is reported as -0.00298.
`CACAATTC` has an E-score of -0.118.
With `AGGCTTCA` the E-score was 0.0681.
For `AGTCGGAA`, the E-score was 0.155.
The E-score of `ATTTGCGG` is reported as 0.187.
For `CTATTATA`, the E-score was -0.189.
`CGGTGGCA` gave an E-score of 0.00127.
`AGTAGGTG` has an E-score of -0.107.
For `ACGACTGA`, the E-score was -0.174.
`AAACTCTG` gave an E-score of -0.212.
With `ACGCATGC` the E-score was 0.203.
For `ATAGTCCG`, the E-score was -0.0247.
`AAGCCCCG` has an E-score of 0.134.
`ATGGGCTA` has an E-score of -0.271.
For `ATGCCCTA`, the E-score was -0.215.
`AAAGACTC` gave an E-score of -0.214.
With `ACTTATCT` the E-score was -0.215.

Block 2 — technique: RNA Bind-n-Seq; molecule type: RNA; matrix: in vitro; concentration: 365 nM; baseline: no-protein control; direction: higher = stronger binding
Target: RNA binding protein fox-1 homolog 2, RRM domain, GST-SBP tag (RBFOX2, Homo sapiens, UniProt O43251-10, residues 100-194)
Notes: natural RNA segment, single round, ends assumed
Residues (chain): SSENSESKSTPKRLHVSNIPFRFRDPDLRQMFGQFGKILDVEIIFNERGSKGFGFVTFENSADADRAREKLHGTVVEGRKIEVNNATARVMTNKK
For `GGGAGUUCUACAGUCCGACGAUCGAGCAAACAAAUUUGAUUAUUUUUUCAUUGUUAAAUAGGCAACAUGACCAGAAAGGAUGGAAUGGCUUAAGUAAACUAAGGGUUCACUUCUAGAGCUGAGAAGCAGGGUCUGGAAUUCUCGGGUGCCAA`, “RBNS enrichment (R)” read 0.457.
`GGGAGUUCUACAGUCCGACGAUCGCUGGAUUUUGGUUCCCUUGUAAAGACAGAGUGAAUUUCAGUAUAAAGAUCACCCGUUGUAUUCACCCCACACCCAGGGCUAGUAUAAACAUGACCCUGGGCUUCUGUACUGGAAUUCUCGGGUGCCAA`: “RBNS enrichment (R)” 0.467.
`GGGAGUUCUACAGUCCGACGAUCCUGCUAUAGUGUGAAAAUCAGGGCUAAAAACCUGAAGCCUUUGUUUAAUUAUGCUUUUCCUCUAAAUAGCAACUUAAAUAUUUGCUAGACUUUGAAUCAUCGCUAUAUCAUGGAAUUCUCGGGUGCCAA` — result for “RBNS enrichment (R)”: 0.759.
`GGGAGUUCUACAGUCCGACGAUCAAUCCUACAGUCAAUAGCUAAAGACGAAACCUUCAUUUCAGAACUCUCAUGAAUAUUCUUUAAGUGCUAUUUAAACCUCCCCAGCACUUAGAUGCAUAUAAUGGACUUACUGGAAUUCUCGGGUGCCAA`: “RBNS enrichment (R)” 0.696.
Under “RBNS enrichment (R)”, `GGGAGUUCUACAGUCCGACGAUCAUAUUCUUUUUUAAAUGCGGAUUUUCAAAACAUAUUUCCUUUCCAGUGUCCCUUUUGUGUCUGGCUUGCUGAGUAUAGAAGCUGUCACCUGGACGAUUCUGCUCCUCAGCUGGAAUUCUCGGGUGCCAA` is recorded as 0.751.
Under “RBNS enrichment (R)”, `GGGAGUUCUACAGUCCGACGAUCAGACUAGAAGAGUCUUAAAUUAUAUGUGGGAGGAGGAGGGAUAGAACAUCACAACACUGCUCUAGUUUCUUGGAGAAUCACAUUUCUUUACAGGUUAAAGACAAACAAGAUGGAAUUCUCGGGUGCCAA` is recorded as 0.413.
`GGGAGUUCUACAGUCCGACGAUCAAGGACUCCUAAGCGCCGAAGCCAAGGAGCCUCCUCCCUUCCUGGUUCACCCCGCCCAAGGGACCUGCCCCCAUUCCUGUGGCCCUGGGGCCCAGCUUCCAAUAGUGUCAUGGAAUUCUCGGGUGCCAA` — result for “RBNS enrichment (R)”: 0.215.
`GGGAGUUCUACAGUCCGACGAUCCCCCAGUUGCAUUUAUCGAGCCUUUCUGAUGGCCACAUAGCUCCUGGCAGUGGGUUGGAAGAUUUCUACUGGGUCACAUGAUGUCUGGUAAUGCCAUCUUGAACUCCCUGUGGAAUUCUCGGGUGCCAA`: “RBNS enrichment (R)” 0.48.
`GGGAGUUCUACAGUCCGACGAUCUGUGGAGGAGUGGUCCCAGUGACAUCCAGGCACCAUUCAGCACAACACUGGGAAGUGAUUCUUCCCUCAGGCCCCUCUGCCUACCAACACCUGGGCUCCUCACUGGGGGAUGGAAUUCUCGGGUGCCAA` — result for “RBNS enrichment (R)”: 0.552.
For `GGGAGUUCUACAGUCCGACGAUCACACGCAGGCGGGCGACGGAACUUGAAGGGUUAUUGACAUGCAAAUGCUGGUGUUUGAUUUCCUGUGUUGUUGCCUCAGCGUUAAGGGCAUUUCCGUUUGCAGUUCUACUUGGAAUUCUCGGGUGCCAA`, “RBNS enrichment (R)” read 2.43.
`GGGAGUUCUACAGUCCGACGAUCCAGAUCCUGCGCACCACGCCCCCUCCCCCAAGUGCCCUCUGCCGAGCCCGUCCUGGUAUUGACUUUGUGGCUGAGUUCCGAGGUGCCUUUCCCGGAUCCUCCUCGCUGGGUGGAAUUCUCGGGUGCCAA` — result for “RBNS enrichment (R)”: 0.269.
`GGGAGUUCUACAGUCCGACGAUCAGCUGCAGAAGUCACCUACUUGUGGGUCUAGGGUAAUGAACACAUAGAUCUAUUUGACUUAAUAAGUAGGAACCCCCUUUGCCCUUCCCCCAUCUCCUCUCCCUUACUGUUGGAAUUCUCGGGUGCCAA`: “RBNS enrichment (R)” 0.747.

Block 3 — technique: EMSA with sequencing; molecule type: double-stranded DNA, one strand shown; matrix: in vitro; concentration: 10 and 20 nM; baseline: negative control set to 0; direction: higher = stronger binding
Target: Hepatocyte nuclear factor 3-alpha (Foxa1, Mus musculus, UniProt P35582, residues 1-468, full length assumed)
Notes: whole designed probe, mean of two concentrations, ends assumed
Target sequence (chain): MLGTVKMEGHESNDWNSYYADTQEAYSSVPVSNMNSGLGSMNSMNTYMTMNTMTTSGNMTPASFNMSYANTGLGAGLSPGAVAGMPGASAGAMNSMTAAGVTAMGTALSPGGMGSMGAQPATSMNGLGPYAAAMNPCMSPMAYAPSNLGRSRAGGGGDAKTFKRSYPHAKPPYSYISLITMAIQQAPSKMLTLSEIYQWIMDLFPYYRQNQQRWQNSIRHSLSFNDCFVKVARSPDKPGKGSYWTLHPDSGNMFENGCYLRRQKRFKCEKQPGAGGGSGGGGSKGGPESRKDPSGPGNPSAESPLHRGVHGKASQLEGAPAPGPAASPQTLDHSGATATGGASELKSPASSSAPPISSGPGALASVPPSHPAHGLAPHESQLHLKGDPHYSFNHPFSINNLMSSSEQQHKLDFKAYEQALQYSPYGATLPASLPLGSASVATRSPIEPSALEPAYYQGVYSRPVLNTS
`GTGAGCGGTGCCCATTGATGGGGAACATGAAATGTTTATTAAGCACCTGTTATTACACACTGGGGGACCCGAAGAGTTATACAACAGCTCATTTATAAAACCTAGCAGGAGGGACACAATGTAAACATGAGCAAATGACAATAAAAATTTCATTTGAAATAAATGTAATATTTGATAAGTGTTCAAGACATTTAGAGGAGGGAGTCATCGTTGCATCCCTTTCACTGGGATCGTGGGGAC` — result for “normalised bound fraction”: 0.43 ratio.
For `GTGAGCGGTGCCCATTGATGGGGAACTCAGGTTGCAGTGAGCTCTGATCGTGCCACTGCACTCCAGCCTGTGTGACAGAGCAAGGGCCTGTCTCTAAAAACAAAACAAAACAAAGCAAAACAAACATGAGAAGTCCAGATTCATACCTTGCAAAGAGGTTTCATTCGGCAGCAAGTTGAAATTATCTACTGGTTTGTACATGAGCTAGCACTTCCTCTTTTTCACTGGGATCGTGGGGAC`, “normalised bound fraction” read 0.468 ratio.
`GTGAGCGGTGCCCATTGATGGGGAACTGCTTTGTTTTTGAGAGAAGGTTTCATCTGAAACAGAAACAGACACACATACCACGAGCCCGATTACTATAGAACCGAAGAGACCTTTCCAGCTGTTTACACTTCGGATGTAAAATGGCAATTTGACATAGACTAACAGTGTGATGTGAGCATCTGCGTAAAAAGGCGACATATGGAGCATGCCCAGTGTGGGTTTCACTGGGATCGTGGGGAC` — result for “normalised bound fraction”: 0.163 ratio.
Under “normalised bound fraction”, `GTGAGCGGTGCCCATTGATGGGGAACTTACTGACATGAAGAGCGTTGCTATAGTTTTAAGAGATTTTTTTTTTCTGATTTTAAACAAAAACTAGAATAAAAATTTTCACACTTTCAAAGTAATCTGAAAGGGGGGGATTGTGACATTTAGCACATGCAGTATGAGAATTATTGGTAAAAGAAAAGCCAAAAAAGGTTTACAACTGTCCCACGACAAAAATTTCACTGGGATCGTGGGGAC` is recorded as -0.0437 ratio.
For `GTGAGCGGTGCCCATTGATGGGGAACGGGTCAGAGGAGCTTACAGTGAGTGGACAAAGCAAATATAATCCTGCCTTACTAATTTCGTAGGATATTCACCTTTCTGAAGTCACACAAATGTAAACATGAAAAATATTCATTATAAAAGAAACCTAGGGAAAGTGCAAACACTTGAAGAATGTGCATTTTTTACAATTGCATTTGTTTTATTCAAGCGCTTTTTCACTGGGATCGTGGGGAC`, “normalised bound fraction” read 0.419 ratio.
Under “normalised bound fraction”, `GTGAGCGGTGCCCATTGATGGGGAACTGTGTGTGCGCGCGCGTGTGTGTGTGTTTTCTTAAGCCGGGCTATTCAAACCCTGCTGCAATTCTCCGGTAAACAATGATTCATGGGGCATAATGCAATTTAACGGATTGCAAACGGCGCGGTTCGCGCACTTTGCAGCCGGCCCGGTGGAGCAGCCAGTGCCGGATTTCTCCCTTTTTTTGCAGATCTGCAGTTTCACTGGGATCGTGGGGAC` is recorded as 0.131 ratio.
`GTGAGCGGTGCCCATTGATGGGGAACATCTTCCCCCTCTTCCTTGCCCCACCAGCTCACCTTCCCGGGTATCTGCAAATAAGTATTTATTTTCAAGCCGGCATTCGTTAACCCTCTTCTGGCGCAAACTGCCAAAGTAAACAGATGAATCATGGTCCTTTGGCGACGCCAGGCTCCGGGAGAGCAAAGCACCGTGTCAGGGCCATGATCCGGGGTGGCCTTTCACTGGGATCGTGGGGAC` — result for “normalised bound fraction”: 0.451 ratio.
`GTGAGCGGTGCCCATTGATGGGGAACATCTTCCCCCTCTTCCTTGCCCCACCAGCTCACCTACGGGGGTTATTTGCACAAAGGAAAATAAATAAAGCCGGCATTCGTTAACGCAGTTCACGCGCATACTGCTGTTTGCTCTGGATCTAACATGGTCCTTTGGCGACGCCAGGCTCCGGGAGAGCAAAGCACCGTGTCAGGGCCATGATCCGGGCTCGCCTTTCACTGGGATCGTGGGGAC` — result for “normalised bound fraction”: 0.386 ratio.

Block 4 — technique: universal PBM; molecule type: double-stranded DNA, one strand shown; matrix: in vitro; concentration: 600 nM; direction: higher = stronger binding
Target: Sal-like protein 4, full length isoform A (SALL4, Homo sapiens, UniProt Q9UJQ4, residues 1-1053)
UniProt Q9UJQ4, sequence (whole entry, looked up): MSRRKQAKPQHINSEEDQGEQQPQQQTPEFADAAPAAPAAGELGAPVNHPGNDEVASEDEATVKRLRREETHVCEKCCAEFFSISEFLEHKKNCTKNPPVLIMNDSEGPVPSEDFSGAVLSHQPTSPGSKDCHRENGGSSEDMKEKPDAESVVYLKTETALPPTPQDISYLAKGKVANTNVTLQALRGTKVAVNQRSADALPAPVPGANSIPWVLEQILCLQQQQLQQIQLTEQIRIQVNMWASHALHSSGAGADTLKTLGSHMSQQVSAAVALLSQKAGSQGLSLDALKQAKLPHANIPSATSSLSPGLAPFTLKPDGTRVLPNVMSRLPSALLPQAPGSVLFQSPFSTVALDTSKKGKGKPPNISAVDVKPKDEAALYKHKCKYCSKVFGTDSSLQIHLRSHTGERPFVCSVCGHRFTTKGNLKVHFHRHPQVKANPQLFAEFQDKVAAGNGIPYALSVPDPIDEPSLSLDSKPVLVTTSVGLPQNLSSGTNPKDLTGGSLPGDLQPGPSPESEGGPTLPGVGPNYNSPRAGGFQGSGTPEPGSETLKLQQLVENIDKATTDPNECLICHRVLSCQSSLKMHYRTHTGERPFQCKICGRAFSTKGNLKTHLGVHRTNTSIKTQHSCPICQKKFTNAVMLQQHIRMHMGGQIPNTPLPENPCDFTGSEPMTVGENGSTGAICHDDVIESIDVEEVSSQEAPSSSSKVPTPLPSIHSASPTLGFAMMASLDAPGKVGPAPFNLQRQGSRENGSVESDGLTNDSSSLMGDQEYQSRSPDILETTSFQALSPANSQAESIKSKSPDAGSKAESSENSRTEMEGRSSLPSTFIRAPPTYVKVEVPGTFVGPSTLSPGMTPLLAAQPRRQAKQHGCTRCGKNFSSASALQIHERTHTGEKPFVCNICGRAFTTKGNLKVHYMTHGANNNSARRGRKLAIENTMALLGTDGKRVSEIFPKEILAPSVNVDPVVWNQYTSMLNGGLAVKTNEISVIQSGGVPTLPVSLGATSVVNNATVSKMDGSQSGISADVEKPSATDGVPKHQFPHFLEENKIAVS
Notes: 8-mer, flanks averaged, mean of replicates
For `ACCTGAAA`, the E-score was 0.0562.
`CTTGTGGC` gave an E-score of -0.214.
With `CCCGCGAC` the E-score was -0.369.
With `GGCCACCC` the E-score was -0.343.
With `CGCTCCCC` the E-score was -0.392.
For `CCAGGTCG`, the E-score was -0.304.
The E-score of `TAGACCAA` is reported as 0.129.
`AGGCTCTG` gave an E-score of -0.233.
`GTGCTCGA` has an E-score of -0.183.
`AAGCTCGA` gave an E-score of 0.0652.
`GACGGGCC` gave an E-score of -0.39.
For `CACACGTA`, the E-score was -0.0813.
`TGGTTCAA` has an E-score of 0.0819.
`GCCCCTCA` gave an E-score of -0.305.
The E-score of `GGGGCCGA` is reported as -0.386.
The E-score of `ACATGTGA` is reported as 0.135.
For `AGCCTCGC`, the E-score was -0.23.
The E-score of `ATAGGGAA` is reported as -0.0643.

Some of these lines once more (block 1):
The E-score of `ATTTGCGG` is reported as 0.187.
`AAACTCTG` gave an E-score of -0.212.
`CTGGAACC` has an E-score of -0.0537.
